Measurements of several laboratories.
Each numbered part is a random draw from the data of one study; scales do not carry over between parts. Positions count from the first letter of the parent shown.

Study 1 — method: protein-binding microarray; molecule type: double-stranded DNA, one strand shown; medium: in vitro; tested at: not given; reading: higher = stronger binding; quantity: E-score
Target: Myc proto-oncogene protein, bHLH-zipper, MAX partner unstated (MYC, Homo sapiens, UniProt P01106, residues 368-449)
Sequence of UniProt P01106 (368-449, looked up): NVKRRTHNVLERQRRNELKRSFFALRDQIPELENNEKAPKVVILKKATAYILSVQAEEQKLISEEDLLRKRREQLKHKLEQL
Setting: k-mer, scored over probes, only values ≥0.25
Oligonucleotide = ACGAGGGG; result = 0.396
Oligonucleotide = AAGCCACG; result = 0.373
Oligonucleotide = CATGCAAG; result = 0.292
Oligonucleotide = TGCGGCAA; result = 0.28
Oligonucleotide = CGTGGGGC; result = 0.348
Oligonucleotide = CCATGCGC; result = 0.435
Oligonucleotide = ACGCATTG; result = 0.318
Oligonucleotide = ACCCCGTG; result = 0.403
Oligonucleotide = ACGCTAAC; result = 0.289
Oligonucleotide = GTGTGGGA; result = 0.317
Oligonucleotide = CCCCGCCA; result = 0.354
Oligonucleotide = ACGTGTCC; result = 0.42
Oligonucleotide = GAACATGA; result = 0.258
Oligonucleotide = GTGACCAC; result = 0.352

Study 2 — method: RNA Bind-n-Seq; molecule type: RNA; medium: in vitro; tested at: 200 nM; setting: whole 134-nt RNA, ends assumed; added: 150 mM KCl; reference: input library; reading: higher = stronger binding; quantity: log2 enrichment
Target: Fragile X messenger ribonucleoprotein 1, C-terminal low-complexity region (Fmr1, Mus musculus, UniProt P35922)
Constant ends, left off below: GGGAGUUCUACAGUCCGACGAUC … UGGAAUUCUCGGGUGUCAAGG
Oligonucleotide = UCCUCAAGUCCUGUGCUACACAUCGUAUGUACCGAAUCGGUUUGGAGGAGGAAAGUAUUAUGUUACGCCGUUCGGAUCUGCACUUCCAGC; result = -0.634
Oligonucleotide = UCCUGUGCUACACAUCGUAUGUACCGAAUCGGGGAAAAAGGAAAAAGGGGAAAAAGGGGAAAGUAUUAUGUUACGCCGUUCGGAUCUGCA; result = -0.00146
Oligonucleotide = UAACUUUAGAGGAGGAUCUGAUUGAUAUGGCAGUGGACGUGGAUUUGGGGAUGGCUAUAAUGGGUAUGGAGGAGGACCUGGAGGUGGCAA; result = 0.356
Oligonucleotide = GUCCUGUGCUACACAUCGUAUGUACCGAAUCGGGGCCCCCGGCCCCCGGGCCCCCGGGGAAAGUAUUAUGUUACGCCGUUCGGAUCUGCA; result = -0.93
Oligonucleotide = CACAGACAACACGCACCCACACAGACACAGAGGGAAGGGGUUAAAAUGGGGACAGGGUGCACAGCAGGGCGGGGUAGGACCCCAGCCCCU; result = 0.593
Oligonucleotide = CACAGACAACACGCACCCACACAGACACAGAGGGAAGGGGUUGGGCUGGGGACAGGGUGCACAGCAGGGCGGGGUAGGACCCCAGCCCCU; result = 1.26
Oligonucleotide = CCUGUGCUACACAUCGUAUGUACCGAAUCGGGCCCCCCGGGCCCCCCGGGGCCCCCCGGGAAAGUAUUAUGUUACGCCGUUCGGAUCUGC; result = -0.765
Oligonucleotide = UGGCCCUGGUGGCAUGCAGGGAGGAAGAGGUGGCCUCAUGGAUCGUGGUGGUCCCGGUGGAAUGUUCAGAGGUGGCCGUGGUGGAGACAG; result = -0.149
Oligonucleotide = ACCAUGCAGGUGGGCAUCUUUGGGAAGUGGGGCAAAGGGGGGAUAGGGAGGGGGGUAACACUUUGGGAACAGGUGGUCCCAGGUCGUUUC; result = 0.787
Oligonucleotide = UGUGGAUGCCCUGCUGAAGAAGUCUGAGGCCCAGCAUGAACAGCCGGAAGAUGGAUGCCCCUUUGGUGCCCUGACGCAGCGCCUCCUGCA; result = -0.662

Study 3 — method: universal PBM; molecule type: double-stranded DNA, one strand shown; medium: in vitro; tested at: 600 nM; reading: higher = stronger binding; quantity: E-score
Target: Sal-like protein 4, full length isoform A (SALL4, Homo sapiens, UniProt Q9UJQ4, residues 1-1053)
Sequence of UniProt Q9UJQ4 (whole entry, looked up): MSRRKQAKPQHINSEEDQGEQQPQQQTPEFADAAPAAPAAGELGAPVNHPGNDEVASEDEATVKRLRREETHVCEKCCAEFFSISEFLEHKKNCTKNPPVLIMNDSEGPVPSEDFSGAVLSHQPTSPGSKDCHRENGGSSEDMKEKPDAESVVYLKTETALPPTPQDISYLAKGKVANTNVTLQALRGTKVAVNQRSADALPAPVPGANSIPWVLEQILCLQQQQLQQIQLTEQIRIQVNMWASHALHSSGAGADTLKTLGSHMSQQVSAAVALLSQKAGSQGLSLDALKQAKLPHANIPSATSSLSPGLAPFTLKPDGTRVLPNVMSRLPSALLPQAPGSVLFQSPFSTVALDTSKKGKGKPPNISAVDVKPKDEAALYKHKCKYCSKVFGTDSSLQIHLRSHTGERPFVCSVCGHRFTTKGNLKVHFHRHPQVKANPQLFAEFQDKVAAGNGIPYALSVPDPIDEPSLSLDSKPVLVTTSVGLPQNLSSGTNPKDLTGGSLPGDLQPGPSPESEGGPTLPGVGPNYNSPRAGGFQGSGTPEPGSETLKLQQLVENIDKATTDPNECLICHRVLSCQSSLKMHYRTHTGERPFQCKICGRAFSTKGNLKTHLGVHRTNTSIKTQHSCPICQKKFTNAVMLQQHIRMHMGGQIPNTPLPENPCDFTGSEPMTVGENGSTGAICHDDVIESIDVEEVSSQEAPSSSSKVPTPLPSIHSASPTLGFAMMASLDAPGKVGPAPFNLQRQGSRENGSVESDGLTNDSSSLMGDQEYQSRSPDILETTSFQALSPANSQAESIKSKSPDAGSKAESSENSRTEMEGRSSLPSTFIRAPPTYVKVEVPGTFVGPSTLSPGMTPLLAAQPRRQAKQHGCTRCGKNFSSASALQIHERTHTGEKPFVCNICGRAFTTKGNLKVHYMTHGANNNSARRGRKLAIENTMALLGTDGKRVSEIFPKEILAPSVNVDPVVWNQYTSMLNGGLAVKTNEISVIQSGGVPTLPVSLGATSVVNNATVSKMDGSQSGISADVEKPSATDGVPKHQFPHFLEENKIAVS
Setting: 8-mer, flanks averaged, mean of replicates
Oligonucleotide = GAATTCTC; result = 0.02
Oligonucleotide = GGTCTAAC; result = -0.166
Oligonucleotide = CGCAAAAC; result = 0.049
Oligonucleotide = CGACCGCG; result = -0.352
Oligonucleotide = AGCGCGAT; result = -0.0993
Oligonucleotide = ACACAACA; result = 0.207
Oligonucleotide = TGGTGCAA; result = -0.0231
Oligonucleotide = CCTTACAG; result = -0.0425
Oligonucleotide = CACGCGGA; result = -0.101
Oligonucleotide = CGCTCAAG; result = -0.0975
Oligonucleotide = GATATCGA; result = 0.16
Oligonucleotide = CTACGGAA; result = 0.0431
Oligonucleotide = CGTCAGTC; result = -0.147
Oligonucleotide = ACGAACCC; result = -0.273
Oligonucleotide = GAACGGCC; result = -0.223
Oligonucleotide = AAATCGTT; result = 0.214
Oligonucleotide = ACACGTTG; result = -0.0978
Oligonucleotide = CACTCCGC; result = -0.244
Oligonucleotide = GAAGCAGA; result = 0.0816
Oligonucleotide = ACGTGCCA; result = -0.14
Oligonucleotide = CCGACCCG; result = -0.363
Oligonucleotide = ATGCAGCG; result = -0.168
Oligonucleotide = ACGATCAA; result = 0.208

Study 4 — target: CCNB3, cyclin fold, Cln2 fusion (human); method: yeast growth competition, sequencing; medium: yeast; setting: weak parent motif; reference: not given; reading: higher = stronger binding; quantity: normalised enrichment score
Starting sequence: CDKN1A docking peptide (human); SKACRRLFGPVDS; partner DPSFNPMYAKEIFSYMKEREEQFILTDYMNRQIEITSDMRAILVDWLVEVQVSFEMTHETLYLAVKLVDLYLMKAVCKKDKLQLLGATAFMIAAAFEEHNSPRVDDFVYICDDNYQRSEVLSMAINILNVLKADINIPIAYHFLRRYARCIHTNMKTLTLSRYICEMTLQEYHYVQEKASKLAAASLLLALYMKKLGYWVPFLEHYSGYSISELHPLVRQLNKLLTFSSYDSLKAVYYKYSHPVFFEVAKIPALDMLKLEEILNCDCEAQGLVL
Change = SKSCRRLFGPVDS [A3S]; result = 0.151
Change = SKACRRLFGPVHS [D12H]; result = 0.484
Change = SKACRKLFGPVDS [R6K]; result = 0.63
Change = SKACRRLFGPVTS [D12T]; result = 0.481
Change = SKACRRLFAPVDS [G9A]; result = 0.679
Change = SKACRNLFGPVDS [R6N]; result = 0.103
Change = SKACRRLHGPVDS [F8H]; result = 0.162
Change = SKACRRLFVPVDS [G9V]; result = 0.457
Change = SKAERRLFGPVDS [C4E]; result = -0.0603
Change = SKACRRLLGPVDS [F8L]; result = -0.323
Change = SKACRRTFGPVDS [L7T]; result = 0.284
Change = SKASRRLFGPVDS [C4S]; result = 0.347
Change = SKYCRRLFGPVDS [A3Y]; result = 0.199
Change = SPACRRLFGPVDS [K2P]; result = 0.642
Change = SKACRRLFGKVDS [P10K]; result = 0.682
Change = SKACYRLFGPVDS [R5Y]; result = 0.156
Change = SKDCRRLFGPVDS [A3D]; result = 0.0675
Change = SKACRRLFGPRDS [V11R]; result = 0.824
Change = SKACRRLFGRVDS [P10R]; result = 0.639
Change = SKACVRLFGPVDS [R5V]; result = 0.268
Change = SFACRRLFGPVDS [K2F]; result = 0.757
Change = SKACRRVFGPVDS [L7V]; result = 0.602
Change = SKACRGLFGPVDS [R6G]; result = -0.0734
Change = SKACRRLFGPSDS [V11S]; result = 0.384
Change = SHACRRLFGPVDS [K2H]; result = 0.578

Study 5 — method: protein binding microarray; molecule type: double-stranded DNA, one strand shown; medium: in vitro; tested at: not given; reference: not given; reading: higher = stronger binding; quantity: E-score
Target: Histone acetyltransferase KAT6A, winged helix 2, GST fusion (KAT6A, Homo sapiens, UniProt Q92794, residues 85-181)
Setting: 8-mer, flanks averaged, mean of 2 arrays, mostly near background
Target sequence (chain): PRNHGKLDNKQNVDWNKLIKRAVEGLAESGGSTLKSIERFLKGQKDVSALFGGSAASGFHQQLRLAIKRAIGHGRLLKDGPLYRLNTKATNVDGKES
Oligonucleotide = AAATCAAT; result = 0.148
Oligonucleotide = ATTCCTCG; result = -0.0191
Oligonucleotide = CCTAGGCG; result = 0.0261
Oligonucleotide = ACCTGTTA; result = -0.202
Oligonucleotide = CCCTTGAA; result = -0.168
Oligonucleotide = ACACTGCT; result = -0.172
Oligonucleotide = GATTCCCC; result = -0.0476
Oligonucleotide = TCGATGCA; result = -0.144
Oligonucleotide = CGTCCATA; result = 0.0525
Oligonucleotide = CCTGTGGC; result = 0.0926
Oligonucleotide = ATAGTGGA; result = -0.0774
Oligonucleotide = CAATGTCA; result = -0.00695
Oligonucleotide = CGGCAGTC; result = 0.133
Oligonucleotide = AGATGTCC; result = -0.189
Oligonucleotide = CGAGATTA; result = 0.164
Oligonucleotide = GATCTAGA; result = -0.102
Oligonucleotide = CGTATCAC; result = 0.00364
Oligonucleotide = ACAGTCGT; result = -0.161
Oligonucleotide = AATGGAAC; result = 0.0356

Study 6 — method: RNA Bind-n-Seq; molecule type: RNA; medium: in vitro; tested at: 365 nM; reference: no-protein control; reading: higher = stronger binding; quantity: RBNS enrichment (R)
Target: RNA binding protein fox-1 homolog 2, RRM domain, GST-SBP tag (RBFOX2, Homo sapiens, UniProt O43251-10, residues 100-194)
Setting: natural RNA segment, single round, ends assumed
Constant ends, left off below: GGGAGUUCUACAGUCCGACGAUC … UGGAAUUCUCGGGUGCCAA
Residues (chain): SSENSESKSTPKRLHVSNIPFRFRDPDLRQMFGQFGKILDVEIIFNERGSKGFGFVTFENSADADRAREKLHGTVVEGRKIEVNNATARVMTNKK
Oligonucleotide = GGGAGGGCGCGCUGCUGGUCCACAUUGGCUCCAUGGGGGAGCCCUCCCCUUGAGUUGGGGCUGAUAUAGCAGGAGUGAAUCUUGUGGGGGAGUUUUUUUCCUCCACAUUU; result = 0.374
Oligonucleotide = UGGCUUGUGUUAUCGGACAUUCUAAUGCAUAUUUAUAAGAGAAGUUUAACAAGUAUUUAUUCCCAUACUUCCCCUUGCAGACUGUUUUCUUCUGGCCUUUAGGCCUCUGC; result = 1.97
Oligonucleotide = GAUAUAAAAUAGGCUUAGAGAGGAAAAGCUGCCUCUGGUCAAGUAGAUCAUGGCAGCAUGAAUUCCAACUCACUUUUUUACAACUCCAACUUCUAUGUUUAUCUUUGUUA; result = 0.551
Oligonucleotide = AUUGAAUGAGACAAUGCCCACGAAAUGCCCAGUUACAGUACCUGGUUCAAAACUUACUGCAUUUUAAUUUUUCACUUAACUUAUAACAUGUCUUGCUUCUCCAGUGUGUG; result = 2.84
Oligonucleotide = GCUCGUCCUUUUCCAGGACACAAUGGAACUGUCGGAAGAAGAGUUUCUAGAAAGUUAGGAUUGGGCAGAUAGUUGAGUCCUAAUCUAUCAAAUCAUUGUUGCCUCUCAUA; result = 0.401
Oligonucleotide = CCUGCUGCAGUCUCUUGGGUCUCACACGCACUGCAAAUGCUAAGCGAUGGCCAGCUGUCUCCCUCCGUGGCAUCUGCUAUUCAAAGAAGAUGGAGUGAGAGGGGCGCCAG; result = 0.275
Oligonucleotide = ACCACUCUAUAUUUUAUGAAUUACAUGUGGGUUUUUUAUAUAUAAAAACAUAUGCGCUGACAUUUUAUUACAAGCUGCAUGUCCUGACCUUCUUUGAAUUAAGUGGACUG; result = 1.91
Oligonucleotide = CUCCUUUUCCCACUGUGCCAGGGAAGGUAGGUUUCUCUGGCUGACUGAGUACUGUGAGUGAGGCAACACUGAUGCCAGCAUGGGUCUUACUUGACUGGGGAGUAGGCUGA; result = 2.29
Oligonucleotide = AAGACAGGAUGCAGACAACGCUCAUGGGUUUUAACUUAUUUUUCUUUAAUAAAAUACCUCCUCCUCCUUUUGAGGUCUUUUAUUGCAGAGCUCACACCUUCAGCAGCCAG; result = 0.432
Oligonucleotide = GCUUUGUGUAAAUACAUCUUUAACAUUUGGGUGGAGAGGGGCCUUAAGAAGGACAGUUCAUUGUAGGAAAGCAAUUCUGUACAUGAGUUUAAGCAUUCUUGUUGCAUUGU; result = 0.626
Oligonucleotide = UCUUUGUUUGGAAACUCCCUCAUCGACAUUGCUAUUGGAUUGUAAAGAGGGGCCCAGUAUCAGUUUGUUGAAUUUGUCAAAUCUUUUCCUGGACAUAAAUGAGACUAUUG; result = 1.3
Oligonucleotide = GCCUCAGUCUUACUGAUUUCAAACACUUUUUUCUUCUGUGUAUUGCUUUUAAGAGAGCCAUCAGUUAGCUAUCAGACUCUAGGUUGAUGCAUUUUGUACUUAGCUGUACU; result = 1.29

Other studies, line by line
Substance = PhoQ, residues 284 288 289 292 302 303 AMDMFI; target = PhoP, residues 12 14 15 18 19 AQALL (Escherichia coli, UniProt P23836); test = Sort-seq, item: YFP reporter; system = E. coli; conditions = PhoQ-PhoP variant library, added: 10 µM Mg2+; how to read = reference: high Mg2+ state, higher = stronger signaling; quantity = fold induction; result = 0.72

For quick reference, copied from above (study 5):
Oligonucleotide = CCTAGGCG; result = 0.0261
Oligonucleotide = ACCTGTTA; result = -0.202
Oligonucleotide = AATGGAAC; result = 0.0356
Oligonucleotide = CAATGTCA; result = -0.00695
Oligonucleotide = CCCTTGAA; result = -0.168
Oligonucleotide = AAATCAAT; result = 0.148
Oligonucleotide = ATTCCTCG; result = -0.0191
Oligonucleotide = CGGCAGTC; result = 0.133
Oligonucleotide = ATAGTGGA; result = -0.0774
Oligonucleotide = GATTCCCC; result = -0.0476
